Measured values pooled from the literature.
A part holds a random share of what one study measured. “And” joins repeats or separate records; there may be more than shown.
Sequence of UniProt Q04912 (whole entry, looked up): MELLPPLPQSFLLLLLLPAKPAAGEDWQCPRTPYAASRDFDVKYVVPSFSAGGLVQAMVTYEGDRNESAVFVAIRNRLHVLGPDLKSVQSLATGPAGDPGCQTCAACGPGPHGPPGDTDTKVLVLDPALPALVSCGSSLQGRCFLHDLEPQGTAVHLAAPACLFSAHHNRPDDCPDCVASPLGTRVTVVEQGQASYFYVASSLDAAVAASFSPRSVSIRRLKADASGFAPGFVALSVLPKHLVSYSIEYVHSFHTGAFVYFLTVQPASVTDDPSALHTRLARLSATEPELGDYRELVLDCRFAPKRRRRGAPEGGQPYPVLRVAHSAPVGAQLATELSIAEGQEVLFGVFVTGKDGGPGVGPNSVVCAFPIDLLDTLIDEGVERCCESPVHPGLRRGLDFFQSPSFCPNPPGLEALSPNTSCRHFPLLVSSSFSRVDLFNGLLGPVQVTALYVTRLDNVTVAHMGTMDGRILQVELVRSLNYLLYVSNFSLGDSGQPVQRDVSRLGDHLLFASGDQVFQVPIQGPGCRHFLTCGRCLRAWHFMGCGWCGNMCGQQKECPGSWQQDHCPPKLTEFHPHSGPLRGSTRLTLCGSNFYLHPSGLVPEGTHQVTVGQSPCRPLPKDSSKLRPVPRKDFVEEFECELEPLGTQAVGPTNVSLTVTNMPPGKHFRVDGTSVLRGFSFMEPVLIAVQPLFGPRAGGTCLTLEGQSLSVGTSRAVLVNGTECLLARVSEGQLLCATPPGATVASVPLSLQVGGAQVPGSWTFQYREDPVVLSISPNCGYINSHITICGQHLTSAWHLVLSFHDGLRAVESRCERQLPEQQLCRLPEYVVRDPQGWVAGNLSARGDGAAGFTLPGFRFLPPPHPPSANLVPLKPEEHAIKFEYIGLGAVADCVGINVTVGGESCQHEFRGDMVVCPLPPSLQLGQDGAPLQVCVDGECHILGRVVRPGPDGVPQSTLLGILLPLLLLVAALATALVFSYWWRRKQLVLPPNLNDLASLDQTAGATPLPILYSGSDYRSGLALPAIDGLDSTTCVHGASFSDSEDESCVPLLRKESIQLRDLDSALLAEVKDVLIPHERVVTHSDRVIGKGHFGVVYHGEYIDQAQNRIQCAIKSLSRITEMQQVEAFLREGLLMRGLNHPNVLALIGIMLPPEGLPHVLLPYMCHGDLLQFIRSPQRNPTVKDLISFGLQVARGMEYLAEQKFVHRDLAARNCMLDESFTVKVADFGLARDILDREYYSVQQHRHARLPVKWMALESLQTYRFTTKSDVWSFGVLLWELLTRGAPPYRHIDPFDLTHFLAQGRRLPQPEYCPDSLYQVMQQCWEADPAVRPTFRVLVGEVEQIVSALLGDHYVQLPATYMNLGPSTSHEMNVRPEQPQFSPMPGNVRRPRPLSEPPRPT
Sequence of UniProt P11309 (whole entry, looked up): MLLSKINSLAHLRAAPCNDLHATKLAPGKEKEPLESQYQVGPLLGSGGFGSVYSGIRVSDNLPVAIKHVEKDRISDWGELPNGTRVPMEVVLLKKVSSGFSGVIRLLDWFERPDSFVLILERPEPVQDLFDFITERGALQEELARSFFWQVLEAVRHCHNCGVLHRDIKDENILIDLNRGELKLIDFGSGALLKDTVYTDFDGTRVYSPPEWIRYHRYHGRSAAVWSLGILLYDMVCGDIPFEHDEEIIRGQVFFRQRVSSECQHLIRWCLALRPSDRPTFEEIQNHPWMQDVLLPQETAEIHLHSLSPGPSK
Sequence of UniProt P52333 (whole entry, looked up): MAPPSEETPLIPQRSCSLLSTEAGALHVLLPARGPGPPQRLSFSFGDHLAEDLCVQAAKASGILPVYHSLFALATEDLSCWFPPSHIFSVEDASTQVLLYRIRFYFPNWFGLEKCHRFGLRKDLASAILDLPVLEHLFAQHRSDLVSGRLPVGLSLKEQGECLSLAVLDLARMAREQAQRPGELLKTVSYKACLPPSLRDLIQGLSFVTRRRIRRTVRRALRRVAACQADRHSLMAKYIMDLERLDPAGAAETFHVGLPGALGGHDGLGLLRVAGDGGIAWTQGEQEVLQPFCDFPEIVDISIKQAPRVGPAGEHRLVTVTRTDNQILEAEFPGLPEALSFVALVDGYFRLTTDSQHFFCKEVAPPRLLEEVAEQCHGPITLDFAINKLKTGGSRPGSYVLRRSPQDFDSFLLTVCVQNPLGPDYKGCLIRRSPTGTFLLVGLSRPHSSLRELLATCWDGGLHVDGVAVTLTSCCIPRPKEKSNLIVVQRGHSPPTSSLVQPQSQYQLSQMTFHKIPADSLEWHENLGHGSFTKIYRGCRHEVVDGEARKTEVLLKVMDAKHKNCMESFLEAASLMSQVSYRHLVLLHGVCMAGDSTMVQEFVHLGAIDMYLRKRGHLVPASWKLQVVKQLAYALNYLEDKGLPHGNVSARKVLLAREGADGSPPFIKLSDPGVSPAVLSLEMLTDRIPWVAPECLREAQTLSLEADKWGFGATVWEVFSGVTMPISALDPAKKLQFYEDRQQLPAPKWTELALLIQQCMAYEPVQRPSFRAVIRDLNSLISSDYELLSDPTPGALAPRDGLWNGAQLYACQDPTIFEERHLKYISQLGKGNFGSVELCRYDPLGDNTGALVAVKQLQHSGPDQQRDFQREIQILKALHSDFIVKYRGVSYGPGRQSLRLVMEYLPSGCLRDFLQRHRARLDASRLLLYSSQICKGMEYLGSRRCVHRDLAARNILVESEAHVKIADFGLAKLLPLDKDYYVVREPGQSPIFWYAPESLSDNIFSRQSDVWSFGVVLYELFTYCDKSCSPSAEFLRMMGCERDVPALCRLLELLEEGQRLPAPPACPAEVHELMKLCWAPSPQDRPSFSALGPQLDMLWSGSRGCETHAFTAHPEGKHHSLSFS
Sequence of UniProt P29320 (whole entry, looked up): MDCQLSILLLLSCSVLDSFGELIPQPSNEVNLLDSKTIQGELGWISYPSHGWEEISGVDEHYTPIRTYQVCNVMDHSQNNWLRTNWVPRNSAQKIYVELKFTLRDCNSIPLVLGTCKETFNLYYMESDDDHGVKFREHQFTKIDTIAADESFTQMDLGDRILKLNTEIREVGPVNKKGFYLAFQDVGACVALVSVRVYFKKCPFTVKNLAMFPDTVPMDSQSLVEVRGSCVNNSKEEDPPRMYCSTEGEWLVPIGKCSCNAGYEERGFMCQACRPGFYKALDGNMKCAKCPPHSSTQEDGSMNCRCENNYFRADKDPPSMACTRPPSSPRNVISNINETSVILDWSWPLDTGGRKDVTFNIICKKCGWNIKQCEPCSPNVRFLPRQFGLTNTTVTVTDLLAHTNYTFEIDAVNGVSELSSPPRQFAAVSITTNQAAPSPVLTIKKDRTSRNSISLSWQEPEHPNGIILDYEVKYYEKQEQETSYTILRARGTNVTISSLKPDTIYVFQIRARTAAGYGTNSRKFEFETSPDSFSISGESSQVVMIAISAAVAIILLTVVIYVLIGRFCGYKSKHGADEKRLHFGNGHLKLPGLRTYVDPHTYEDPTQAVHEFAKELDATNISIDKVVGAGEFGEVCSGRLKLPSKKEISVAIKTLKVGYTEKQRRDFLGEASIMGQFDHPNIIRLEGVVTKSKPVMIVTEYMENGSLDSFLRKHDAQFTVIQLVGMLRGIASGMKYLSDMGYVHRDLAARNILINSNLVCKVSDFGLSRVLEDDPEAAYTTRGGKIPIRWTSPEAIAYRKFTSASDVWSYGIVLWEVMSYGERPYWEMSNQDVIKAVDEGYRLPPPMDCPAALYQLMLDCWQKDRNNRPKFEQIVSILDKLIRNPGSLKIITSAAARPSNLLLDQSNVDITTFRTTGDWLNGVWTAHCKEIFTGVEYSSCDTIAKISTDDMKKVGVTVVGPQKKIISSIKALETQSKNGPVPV
Sequence of UniProt P49841 (whole entry, looked up): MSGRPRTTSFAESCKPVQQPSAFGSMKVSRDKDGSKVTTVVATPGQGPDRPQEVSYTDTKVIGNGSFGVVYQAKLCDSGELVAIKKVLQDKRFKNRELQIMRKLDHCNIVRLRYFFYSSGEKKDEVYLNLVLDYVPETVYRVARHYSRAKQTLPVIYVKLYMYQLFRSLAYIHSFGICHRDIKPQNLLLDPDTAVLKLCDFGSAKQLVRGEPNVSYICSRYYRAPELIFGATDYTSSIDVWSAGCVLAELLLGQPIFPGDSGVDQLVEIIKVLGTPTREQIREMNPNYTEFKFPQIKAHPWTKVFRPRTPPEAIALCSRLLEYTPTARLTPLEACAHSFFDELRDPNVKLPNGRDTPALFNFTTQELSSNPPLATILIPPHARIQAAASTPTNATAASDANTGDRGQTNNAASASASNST
Sequence of UniProt Q00535 (whole entry, looked up): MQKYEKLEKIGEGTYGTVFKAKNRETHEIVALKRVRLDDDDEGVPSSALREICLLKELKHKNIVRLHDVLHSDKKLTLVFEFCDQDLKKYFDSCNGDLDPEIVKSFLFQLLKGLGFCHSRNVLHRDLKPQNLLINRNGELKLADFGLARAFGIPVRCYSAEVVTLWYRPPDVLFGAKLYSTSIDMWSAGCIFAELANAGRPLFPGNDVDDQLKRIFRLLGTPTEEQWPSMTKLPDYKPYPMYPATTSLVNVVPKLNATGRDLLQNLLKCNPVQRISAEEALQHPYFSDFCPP

Series 1
Organism: Sarcocystis neurona
Read-out: parasite growth
Concentration: concentration not given
Quantity: inhibition
CCOC(=O)c1ccc(OC(=O)CCCCCN=C(N)N)cc1.CS(=O)(=O)O: -5.6%
CN(CCOc1ccc(CC2SC(=O)NC2=O)cc1)c1ccccn1.Cl (stereo not drawn): -5.2%
CN(Cc1cnc2nc(N)nc(N)c2n1)c1ccc(C(=O)N[C@@H](CCC(=O)O)C(=O)O)cc1.O: -11.4%
Cl.NC(N)=NC(=O)c1nc(Cl)c(N)nc1N.O: -16.4%
Cl.O.O=C1N(c2ccccc2)c2ccccc2C1(Cc1ccncc1)Cc1ccncc1: -15%
CN1[C@@H]2CC[C@H]1C[C@@H](OC(c1ccccc1)c1ccccc1)C2.CS(=O)(=O)O: -10.1%
Cl.c1ccc2c(c1)CCCC2C1=NCCN1 (stereo not drawn): -17.4%
COc1ccc(C(=O)NCc2ccc(OCCN(C)C)cc2)cc1OC.Cl: -18.6%

Series 2
Compound: COc1ccc2c(O[C@@H]3C[C@H]4C(=O)N[C@]5(C(=O)O)CC5/C=C\CCCCC[C@H](NC(=O)OC5CCCC5)C(=O)N4C3)cc(-c3csc(NC(=O)C(C)C)n3)nc2c1C (stereo partly drawn)
Concentration: 1 µM
Quantity: remaining binding
Mitogen-activated protein kinase kinase kinase kinase 1 (MAP4K1, Homo sapiens, UniProt Q92918); cell-free assay, competition with immobilised ligand: 100%
Activin receptor type-2B (ACVR2B, Homo sapiens, UniProt Q13705); cell-free assay, competition with immobilised ligand: 100%
Serine/threonine-protein kinase 35 (STK35, Homo sapiens, UniProt Q8TDR2); cell-free assay, competition with immobilised ligand: 100%
Vascular endothelial growth factor receptor 3 (FLT4, Homo sapiens, UniProt P35916); cell-free assay, competition with immobilised ligand: 100%
Tyrosine-protein kinase receptor TYRO3 (TYRO3, Homo sapiens, UniProt Q06418); cell-free assay, competition with immobilised ligand: 100%
Serine/threonine-protein kinase pim-1 (PIM1, Homo sapiens, UniProt P11309); cell-free assay, competition with immobilised ligand: 97%
Receptor-type tyrosine-protein kinase FLT3 (FLT3, Homo sapiens, UniProt P36888, N841I); cell-free assay, competition with immobilised ligand: 89%
Phosphatidylinositol 4,5-bisphosphate 3-kinase catalytic subunit alpha isoform (PIK3CA, Homo sapiens, UniProt P42336, E545K); cell-free assay, competition with immobilised ligand: 68%
Tyrosine-protein kinase ABL1 (ABL1, Homo sapiens, UniProt P00519, E255K); KINOMEscan; E255K mutant, phosphorylated; baseline: control: 80%
Beta-adrenergic receptor kinase 1 (GRK2, Homo sapiens, UniProt P25098); cell-free assay, competition with immobilised ligand: 83%
Serine/threonine-protein kinase 17B (STK17B, Homo sapiens, UniProt O94768); cell-free assay, competition with immobilised ligand: 88%
Cyclin-dependent kinase 4 (CDK4, Homo sapiens, UniProt P11802); cell-free assay, competition with immobilised ligand: 100%
Epidermal growth factor receptor (EGFR, Homo sapiens, UniProt P00533, G719C); cell-free assay, competition with immobilised ligand: 76%
Cyclin-dependent kinase 5 (CDK5, Homo sapiens, UniProt Q00535); cell-free assay, competition with immobilised ligand: 97%
Serine/threonine-protein kinase LATS1 (LATS1, Homo sapiens, UniProt O95835); cell-free assay, competition with immobilised ligand: 100%

Series 3
SMILES: O=c1cc(N2CCOCC2)oc2c(-c3ccccc3)cccc12
Read-out: enzyme activity
Mode: inhibitor
Concentration: 0.5 µM
Baseline: control
Quantity: remaining activity
Wee1-like protein kinase (WEE1, Homo sapiens, UniProt P30291): 76.4%
Tyrosine-protein kinase ABL2 (ABL2, Homo sapiens, UniProt P42684): 98.1%
Serine/threonine-protein kinase TBK1 (TBK1, Homo sapiens, UniProt Q9UHD2): 94.1%
Tyrosine-protein kinase JAK3 (JAK3, Homo sapiens, UniProt P52333): 103%
Ephrin type-A receptor 3 (EPHA3, Homo sapiens, UniProt P29320): 98.7%
Casein kinase I isoform gamma-2 (CSNK1G2, Homo sapiens, UniProt P78368): 94.4%
Serine/threonine-protein kinase ULK3 (ULK3, Homo sapiens, UniProt Q6PHR2): 103%
Glycogen synthase kinase-3 beta (GSK3B, Homo sapiens, UniProt P49841): 96.9%
Macrophage-stimulating protein receptor (MST1R, Homo sapiens, UniProt Q04912): 109%
Activin receptor type-1B (ACVR1B, Homo sapiens, UniProt P36896): 101%
Tyrosine-protein kinase Mer (MERTK, Homo sapiens, UniProt Q12866): 95.2%
Tyrosine-protein kinase FRK (FRK, Homo sapiens, UniProt P42685): 101%
Angiopoietin-1 receptor (TEK, Homo sapiens, UniProt Q02763): 89.2%

Series 4
Structure (SMILES): COc1cc(C(=O)OCCCN2CCCN(CCCOC(=O)c3cc(OC)c(OC)c(OC)c3)CC2)cc(OC)c1OC
Mode: inhibitor
Setting: unit not given
With: [3H]adenosine
Quantity: adenosine uptake
SLC29A1: Equilibrative nucleoside transporter 1 (SLC29A1, Homo sapiens, UniProt Q99808)
Sequence of UniProt Q99808 (whole entry, unmodified, looked up): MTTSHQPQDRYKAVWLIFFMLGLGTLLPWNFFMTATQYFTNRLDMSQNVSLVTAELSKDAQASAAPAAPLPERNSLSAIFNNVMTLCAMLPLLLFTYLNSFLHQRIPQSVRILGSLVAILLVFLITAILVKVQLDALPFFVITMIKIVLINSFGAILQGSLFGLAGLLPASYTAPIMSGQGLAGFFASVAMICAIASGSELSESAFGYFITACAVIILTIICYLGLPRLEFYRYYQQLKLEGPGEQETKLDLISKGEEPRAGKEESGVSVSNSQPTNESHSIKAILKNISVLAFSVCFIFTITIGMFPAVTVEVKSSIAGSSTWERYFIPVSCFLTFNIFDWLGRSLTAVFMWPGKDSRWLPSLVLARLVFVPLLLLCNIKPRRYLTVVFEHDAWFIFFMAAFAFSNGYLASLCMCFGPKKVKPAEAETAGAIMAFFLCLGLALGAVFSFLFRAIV
SLC29A1; 10 µM; baseline: normalised control: 0.00887 and 0.0113 and 0.00691
SLC29A1; 1 pM; baseline: normalised control: 1.05 and 0.81 and 0.817 and 1.21
Equilibrative nucleoside transporter 1 (SLC29A1, Homo sapiens, UniProt Q99808, G154S); Xenopus oocytes expressing SLC29A1 G154S; baseline: untreated: 0.0567 and 0.1 and 0.08
